Published values of several laboratories.
Parts stem from different laboratories: compare values within a part only. Substitutions count along the parent as printed.

Study 1 — method: DHFR PCA, deep sequencing; medium: yeast; together with: (+)-ABA 0.39 µM; baseline: wild-type fitted maximum; reading: higher = stronger binding
Target: ABI1, truncated, D143A, DHFR fusion (Arabidopsis thaliana)
Setting: methotrexate growth selection, single substitutions
Starting sequence: PYL1, truncated, DHFR fusion (Arabidopsis thaliana); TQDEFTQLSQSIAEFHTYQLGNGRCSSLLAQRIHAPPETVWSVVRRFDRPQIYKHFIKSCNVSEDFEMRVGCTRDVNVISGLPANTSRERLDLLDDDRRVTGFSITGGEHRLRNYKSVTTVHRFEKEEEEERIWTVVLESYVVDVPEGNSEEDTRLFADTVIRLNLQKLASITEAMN
Change	relative binding score
Y141P	-3.83%
T154D	-9.02%
S104N	4.79%
E131Y	18.8%
R46N	-13.1%
V161G	-18.5%
V118M	12.2%
E109K	9.07%

Study 2 — method: RNA Bind-n-Seq; molecule type: RNA; medium: in vitro; concentration: 90 pmol; setting: 4-mer, random 30-nt RNA, single round; together with: 3 µM DMDA-PatA, 2 mM ADP, 2 mM phosphate; baseline: input library; reading: higher = stronger binding
Target: Eukaryotic initiation factor 4A-I (EIF4A1, Homo sapiens, UniProt P60842, residues 1-406, full length assumed)
Chain of UniProt P60842 (whole entry, looked up): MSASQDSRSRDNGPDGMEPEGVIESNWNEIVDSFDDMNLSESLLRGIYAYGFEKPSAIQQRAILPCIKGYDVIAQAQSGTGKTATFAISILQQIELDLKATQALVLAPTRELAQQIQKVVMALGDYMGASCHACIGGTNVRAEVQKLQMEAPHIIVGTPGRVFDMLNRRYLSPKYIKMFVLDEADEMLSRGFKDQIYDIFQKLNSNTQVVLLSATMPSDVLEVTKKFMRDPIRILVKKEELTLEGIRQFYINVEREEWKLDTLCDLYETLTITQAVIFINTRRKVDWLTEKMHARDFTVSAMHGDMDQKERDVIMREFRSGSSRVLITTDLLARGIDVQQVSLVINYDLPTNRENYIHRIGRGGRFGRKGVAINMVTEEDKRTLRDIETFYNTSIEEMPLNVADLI
Oligonucleotide	4-mer enrichment [fold]
UAAG	1.17
UACG	0.689
UUUG	1.17
CCAC	0.646
UCGC	0.602
UAUA	1.01
AUUC	0.691
UGGA	1.11

Study 3 — method: protein binding microarray; molecule type: double-stranded DNA, one strand shown; medium: in vitro; concentration: not given; baseline: not given; reading: higher = stronger binding
Target: Histone acetyltransferase KAT6A, winged helix 2, GST fusion (KAT6A, Homo sapiens, UniProt Q92794, residues 85-181)
Setting: 8-mer, flanks averaged, mean of 2 arrays, mostly near background
Target sequence (chain): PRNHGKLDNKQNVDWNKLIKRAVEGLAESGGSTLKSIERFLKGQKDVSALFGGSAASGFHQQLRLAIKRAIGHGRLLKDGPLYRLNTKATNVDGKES
Oligonucleotide	E-score
ACATACAT	-0.174
CAACAGTG	-0.109
ACTCGGAA	0.165
AACTGTAG	-0.136
CCCTGCAA	0.0148
GTCAAACA	-0.182
CATAGCGA	0.163
CTGGTAGA	0.00209

Other studies, line by line
SMILES	cell line	setting	how to read	endpoint	value
CC(C)C(=O)Nc1n[nH]c2cc(-c3cccc(NS(=O)(=O)C4CC4)c3)ccc12	sample B colorectal tumour organoid	1 µM	baseline: DMSO	viability	106%

Some of these lines once more (study 1):
Change	relative binding score
S104N	4.79%
V161G	-18.5%
V118M	12.2%
